# Measured values pooled from the literature.
# By UniProt entry, the sequences of proteins in these tests, tags left out.
# UniProt Q02763, whole entry, looked up: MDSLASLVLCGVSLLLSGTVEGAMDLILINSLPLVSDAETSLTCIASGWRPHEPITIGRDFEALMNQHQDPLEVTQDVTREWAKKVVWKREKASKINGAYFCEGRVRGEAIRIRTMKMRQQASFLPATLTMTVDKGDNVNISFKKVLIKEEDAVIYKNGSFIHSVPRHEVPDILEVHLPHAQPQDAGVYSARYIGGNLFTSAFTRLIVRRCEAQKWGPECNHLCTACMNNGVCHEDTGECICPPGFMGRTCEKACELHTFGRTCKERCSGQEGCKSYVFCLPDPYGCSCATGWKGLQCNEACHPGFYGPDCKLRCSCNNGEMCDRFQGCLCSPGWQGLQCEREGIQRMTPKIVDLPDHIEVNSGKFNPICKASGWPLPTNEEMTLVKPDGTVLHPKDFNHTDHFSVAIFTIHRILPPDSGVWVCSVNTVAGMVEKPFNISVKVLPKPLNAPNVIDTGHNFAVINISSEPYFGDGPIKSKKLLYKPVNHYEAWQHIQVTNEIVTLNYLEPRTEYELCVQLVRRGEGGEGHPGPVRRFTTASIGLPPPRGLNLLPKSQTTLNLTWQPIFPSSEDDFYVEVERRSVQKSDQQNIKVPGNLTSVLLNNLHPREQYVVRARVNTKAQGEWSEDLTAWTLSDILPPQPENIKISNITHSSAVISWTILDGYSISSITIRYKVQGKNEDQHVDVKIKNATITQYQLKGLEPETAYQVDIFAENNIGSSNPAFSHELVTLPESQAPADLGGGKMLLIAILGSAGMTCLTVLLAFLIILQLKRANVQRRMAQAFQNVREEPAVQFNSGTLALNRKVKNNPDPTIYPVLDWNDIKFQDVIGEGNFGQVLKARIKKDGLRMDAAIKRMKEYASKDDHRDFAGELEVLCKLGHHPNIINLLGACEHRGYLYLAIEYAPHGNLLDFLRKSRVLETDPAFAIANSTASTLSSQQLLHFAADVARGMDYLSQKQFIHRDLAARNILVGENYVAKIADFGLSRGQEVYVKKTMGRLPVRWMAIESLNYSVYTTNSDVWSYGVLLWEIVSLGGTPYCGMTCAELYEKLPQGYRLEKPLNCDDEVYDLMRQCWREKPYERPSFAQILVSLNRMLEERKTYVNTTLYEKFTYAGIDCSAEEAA
# UniProt Q9UQB9, whole entry: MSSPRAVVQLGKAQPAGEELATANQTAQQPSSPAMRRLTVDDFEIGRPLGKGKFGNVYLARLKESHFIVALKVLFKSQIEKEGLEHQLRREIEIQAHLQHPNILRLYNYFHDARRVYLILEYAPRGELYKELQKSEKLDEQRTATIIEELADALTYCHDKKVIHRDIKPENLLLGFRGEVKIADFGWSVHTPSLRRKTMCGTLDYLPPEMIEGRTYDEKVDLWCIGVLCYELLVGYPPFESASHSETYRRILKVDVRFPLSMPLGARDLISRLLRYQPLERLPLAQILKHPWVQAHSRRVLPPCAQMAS
# Protocols differ between the studies behind these lines.
SMILES,target or system,assay,system,conditions,scale,endpoint,value
O=C(Cn1c(-c2ccccn2)nc2ccccc21)Nc1ccc2ccccc2c1,Helicobacter pylori,cell growth,G27,exponentially growing culture,,minimum concentration blocking growth,60 µM
CSc1nc(Cl)cc(Sc2nnc(-c3cc(C(F)(F)F)cc(C(F)(F)F)c3)[nH]2)n1,Pseudomonas aeruginosa,,MDR clinical isolate,,,MIC,> 590 µg/mL
CCOC(=O)OCOc1c(-c2ccc(Oc3ccc(OC(F)(F)F)cc3)cc2)c(C)nc2cc(OC)c(Cl)cc12,Plasmodium yoelii,parasitemia suppression,mouse,"oral, 4 days, PEG-400 vehicle",,ED90,0.05 mg/kg/day
CCc1nc(N)nc(N)c1C#CCc1cc(OC)c(OC)c(-c2ccncc2)c1,Staphylococcus aureus,,ATCC 43300,,,MIC,0.0391 µg/mL
CCCCCCC1c2ccc(O)cc2Oc2cc(O)ccc21,Pseudomonas aeruginosa,,MDR clinical isolate,with: polymyxin B nonapeptide 3 µg/mL,,MIC,1.9 µg/mL
CC#C/C(=N\OC[C@H]1COCCN1)c1ccc2ncnc(Nc3ccc(OCc4cccc(F)c4)c(Cl)c3)c2c1,"TEK (Homo sapiens, UniProt Q02763)",kinase activity,,10 µM,,inhibition,42.2%
Cc1ccc(CCNC(=O)c2cnn3c(O)c(Cc4cc(C)ccc4C)c(C)nc23)cc1,Zika virus,viral replication,PF-251013-18,,,IC50,1000 to 10000 nM
CCOc1ccc2cc(-c3nn(C(C)(C)CCO)c(N)c3C(N)=O)ccc2c1,Toxoplasma gondii,growth,,,,EC50,147 nM
COC(=O)c1ccc(Cl)cc1NC(=O)CSc1ncc(S(=O)(=O)c2ccc(Br)cc2)c(=O)[nH]1,Zika virus,viral replication,PF-251013-18,,,IC50,1000 to 10000 nM
CCN1CCN(Cc2ccc(NC(=O)c3ccc(C)c(/C=C/c4cnc5[nH]ccc5c4OC)c3)cc2C(F)(F)F)CC1,"Aurora kinase C (AURKC, Homo sapiens, UniProt Q9UQB9)","inhibitor, cell-based kinome screen",,5 µM,reference: no inhibitor,log2 fold change,0.536
